# Earlier results as cited in several papers.
# Protein sequences, listed by entry. Tags and fused reporters are not part of them. Residues count along the entry.
# UniProt A0A0H2ZM50, 1-441: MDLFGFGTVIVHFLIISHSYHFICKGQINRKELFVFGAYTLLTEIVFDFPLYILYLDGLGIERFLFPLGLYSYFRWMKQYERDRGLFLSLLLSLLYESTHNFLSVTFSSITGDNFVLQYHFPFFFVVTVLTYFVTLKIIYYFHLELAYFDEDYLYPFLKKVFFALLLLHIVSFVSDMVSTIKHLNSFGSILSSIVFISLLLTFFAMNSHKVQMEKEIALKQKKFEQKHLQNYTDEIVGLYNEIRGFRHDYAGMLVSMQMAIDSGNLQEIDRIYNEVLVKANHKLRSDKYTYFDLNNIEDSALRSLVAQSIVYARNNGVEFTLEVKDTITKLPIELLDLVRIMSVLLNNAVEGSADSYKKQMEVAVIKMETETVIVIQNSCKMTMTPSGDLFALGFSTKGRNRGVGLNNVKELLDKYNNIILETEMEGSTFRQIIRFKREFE
# UniProt P25084, whole entry: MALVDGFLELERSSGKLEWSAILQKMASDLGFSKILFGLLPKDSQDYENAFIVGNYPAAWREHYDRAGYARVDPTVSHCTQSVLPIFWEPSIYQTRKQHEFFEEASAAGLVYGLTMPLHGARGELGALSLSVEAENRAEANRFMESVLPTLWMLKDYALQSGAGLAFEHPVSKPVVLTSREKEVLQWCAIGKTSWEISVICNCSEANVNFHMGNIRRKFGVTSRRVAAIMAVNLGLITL
# UniProt O33590, 1-425: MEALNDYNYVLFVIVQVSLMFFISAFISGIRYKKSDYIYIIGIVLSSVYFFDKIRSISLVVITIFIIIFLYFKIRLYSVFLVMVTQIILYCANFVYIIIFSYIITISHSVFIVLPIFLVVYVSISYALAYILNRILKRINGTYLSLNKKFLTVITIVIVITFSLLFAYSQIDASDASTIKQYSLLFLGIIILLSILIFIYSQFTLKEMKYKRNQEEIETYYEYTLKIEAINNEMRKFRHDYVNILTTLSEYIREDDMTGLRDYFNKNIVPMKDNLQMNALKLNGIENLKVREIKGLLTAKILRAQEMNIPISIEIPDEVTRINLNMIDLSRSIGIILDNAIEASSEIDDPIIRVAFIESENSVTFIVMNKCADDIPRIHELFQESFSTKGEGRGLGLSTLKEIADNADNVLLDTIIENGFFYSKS
# UniProt Q62645, whole entry, looked up: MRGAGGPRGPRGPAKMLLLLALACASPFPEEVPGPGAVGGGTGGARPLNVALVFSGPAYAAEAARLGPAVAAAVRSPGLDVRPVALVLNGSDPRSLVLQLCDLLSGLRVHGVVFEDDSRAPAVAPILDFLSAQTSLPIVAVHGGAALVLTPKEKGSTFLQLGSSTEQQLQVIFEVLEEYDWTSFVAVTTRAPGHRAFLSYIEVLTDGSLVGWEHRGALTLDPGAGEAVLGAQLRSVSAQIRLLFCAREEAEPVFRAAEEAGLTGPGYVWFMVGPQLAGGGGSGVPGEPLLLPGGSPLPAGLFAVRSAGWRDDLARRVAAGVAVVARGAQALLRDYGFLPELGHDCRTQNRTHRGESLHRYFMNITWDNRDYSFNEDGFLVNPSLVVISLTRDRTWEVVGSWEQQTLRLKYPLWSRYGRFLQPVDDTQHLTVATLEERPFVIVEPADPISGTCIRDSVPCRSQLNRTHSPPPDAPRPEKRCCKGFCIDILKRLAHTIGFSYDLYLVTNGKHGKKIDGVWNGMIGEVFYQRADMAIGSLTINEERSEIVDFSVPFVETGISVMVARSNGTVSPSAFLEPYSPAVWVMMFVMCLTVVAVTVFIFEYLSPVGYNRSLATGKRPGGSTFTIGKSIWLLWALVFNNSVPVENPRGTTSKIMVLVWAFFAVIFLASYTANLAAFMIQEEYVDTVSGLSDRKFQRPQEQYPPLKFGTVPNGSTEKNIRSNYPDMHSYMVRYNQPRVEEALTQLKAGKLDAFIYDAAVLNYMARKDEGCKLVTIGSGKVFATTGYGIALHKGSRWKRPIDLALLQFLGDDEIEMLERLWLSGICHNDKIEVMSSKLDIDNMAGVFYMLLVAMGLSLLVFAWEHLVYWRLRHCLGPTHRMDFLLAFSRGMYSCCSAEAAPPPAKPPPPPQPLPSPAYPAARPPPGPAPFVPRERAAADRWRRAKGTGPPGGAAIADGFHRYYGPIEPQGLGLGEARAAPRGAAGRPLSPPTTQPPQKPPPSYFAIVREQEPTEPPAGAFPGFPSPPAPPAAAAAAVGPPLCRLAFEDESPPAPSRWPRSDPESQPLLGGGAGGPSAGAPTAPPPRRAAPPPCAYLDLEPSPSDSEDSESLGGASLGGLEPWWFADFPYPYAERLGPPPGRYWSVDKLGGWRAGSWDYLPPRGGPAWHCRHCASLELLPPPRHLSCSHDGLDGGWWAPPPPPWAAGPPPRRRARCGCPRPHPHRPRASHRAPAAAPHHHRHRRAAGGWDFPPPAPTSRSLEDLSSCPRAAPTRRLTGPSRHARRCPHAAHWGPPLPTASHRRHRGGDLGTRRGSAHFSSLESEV
# UniProt P40261, whole entry: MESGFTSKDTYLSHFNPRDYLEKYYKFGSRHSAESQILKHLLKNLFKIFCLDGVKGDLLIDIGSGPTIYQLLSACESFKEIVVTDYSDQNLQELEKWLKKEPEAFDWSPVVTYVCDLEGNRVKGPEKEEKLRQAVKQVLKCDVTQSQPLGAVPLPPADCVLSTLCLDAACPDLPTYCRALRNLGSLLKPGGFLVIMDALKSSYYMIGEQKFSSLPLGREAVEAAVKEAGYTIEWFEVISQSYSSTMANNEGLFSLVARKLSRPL
# Lines come from different studies, so protocols differ. ± marks the error that the study gave.
# Competence histidine kinase ComD: Competence histidine kinase ComD (Streptococcus pneumoniae serotype 2, UniProt A0A0H2ZM50)
SMILES,target,test,test system,endpoint,result
C=C(C)C1CCc2c(c(C)cc(O)c(=O)c2O)C1 (centres unmarked),"Gag-Pol polyprotein, RNase H domain (gag-pol, Human immunodeficiency virus type 1 group M subtype B, UniProt P04585)","RT RNase H activity, inhibitor",,IC50,600 nM
O=C(NCc1cc(Br)cc(Br)c1OC(=O)c1ccccc1[N+](=O)[O-])c1ccccc1Cl,"lasR (Pseudomonas aeruginosa, UniProt P25084)",reporter gene,,EC50,71 nM
CC[C@H](C)[C@@H]1NC(=O)[C@H](Cc2ccccc2)NC(=O)[C@H](CC(=O)O)NC(=O)[C@@H](NC(=O)[C@@H](NC(=O)[C@H](CO)NC(=O)[C@@H](N)Cc2ccc(O)cc2)[C@@H](C)O)CSC(=O)[C@H](CCSC)NC1=O,"Accessory gene regulator protein C (Staphylococcus aureus, UniProt O33590)",inhibitor,,IC50,~0.5 nM
Nc1nc(Nc2ccc(Cl)cc2)nn1S(=O)(=O)c1ccc2ccccc2c1,"Gag-Pol polyprotein, reverse transcriptase (gag-pol, Human immunodeficiency virus 1, UniProt P03366)",,,IC50,280 nM
CC[C@H](C)[C@H](NC(=O)[C@H](Cc1ccccc1)NC(=O)[C@H](CC(=O)O)NC(=O)[C@H](CCCNC(=N)N)NC(=O)[C@H](Cc1ccccc1)NC(=O)[C@H](Cc1ccccc1)NC(=O)[C@H](CCCCN)NC(=O)[C@H](CO)NC(=O)[C@H](CC(C)C)NC(=O)[C@H](CCCNC(=N)N)NC(=O)[C@H](CCSC)NC(=O)[C@@H](N)CCC(=O)O)C(=O)N[C@@H](CC(C)C)C(=O)N[C@@H](CCC(N)=O)C(=O)N[C@@H](CCCNC(=N)N)C(=O)N[C@@H](CCCCN)C(=O)N[C@@H](CCCCN)C(=O)O,Competence histidine kinase ComD,"reporter gene, agonist","Streptococcus pneumoniae, D39 pcomX::lacZ",EC50,10.3 nM
COc1ccc(OC[C@H]2c3cccn3CC(=O)N2Cc2cccc(F)c2)cc1,"Glutamate receptor ionotropic, NMDA 2D, with GluN1 (Rattus norvegicus, UniProt Q62645)","ion current, positive allosteric modulator",,EC50,3200 nM
NC(=O)c1cccc(CCN(CC[C@H](N)C(=O)O)C[C@H]2O[C@@H](n3cnc4c(N)ncnc43)[C@H](O)[C@@H]2O)c1,"NNMT (Homo sapiens, UniProt P40261)","enzyme activity, inhibitor, SAHH-coupled enzyme",,Ki,10000 ± 300 nM
CC[C@H](C)[C@H](NC(=O)[C@H](CCCNC(=N)N)NC(=O)[C@H](CCSC)NC(=O)[C@H](C)N)C(=O)N[C@@H](CO)C(=O)N[C@@H](CCCNC(=N)N)C(=O)N[C@H](C(=O)N[C@H](C(=O)N[C@@H](CC(C)C)C(=O)N[C@H](CC(=O)O)C(=O)N[C@@H](Cc1ccccc1)C(=O)N[C@@H](CC(C)C)C(=O)N[C@@H](Cc1ccccc1)C(=O)N[C@@H](CC(C)C)C(=O)N[C@@H](CCCNC(=N)N)C(=O)N[C@@H](CCCCN)C(=O)N[C@@H](CCCCN)C(=O)O)[C@@H](C)CC)[C@@H](C)CC,Competence histidine kinase ComD,"reporter gene, antagonist","Streptococcus pneumoniae, D39 pcomX::lacZ",IC50,> 1000 nM

# Excerpt of the above:
SMILES,target,test,test system,endpoint,result
C=C(C)C1CCc2c(c(C)cc(O)c(=O)c2O)C1 (centres unmarked),"Gag-Pol polyprotein, RNase H domain (gag-pol, Human immunodeficiency virus type 1 group M subtype B, UniProt P04585)","RT RNase H activity, inhibitor",,IC50,600 nM
